Assay results pooled from the literature.
A part holds a random share of what one study measured. Positions count from the first letter of the parent shown.

Study 1
Target: Ras GTPase-activating protein-binding protein 1, full length (G3BP1, Homo sapiens, UniProt Q13283)
UniProt Q13283, sequence (whole entry, looked up): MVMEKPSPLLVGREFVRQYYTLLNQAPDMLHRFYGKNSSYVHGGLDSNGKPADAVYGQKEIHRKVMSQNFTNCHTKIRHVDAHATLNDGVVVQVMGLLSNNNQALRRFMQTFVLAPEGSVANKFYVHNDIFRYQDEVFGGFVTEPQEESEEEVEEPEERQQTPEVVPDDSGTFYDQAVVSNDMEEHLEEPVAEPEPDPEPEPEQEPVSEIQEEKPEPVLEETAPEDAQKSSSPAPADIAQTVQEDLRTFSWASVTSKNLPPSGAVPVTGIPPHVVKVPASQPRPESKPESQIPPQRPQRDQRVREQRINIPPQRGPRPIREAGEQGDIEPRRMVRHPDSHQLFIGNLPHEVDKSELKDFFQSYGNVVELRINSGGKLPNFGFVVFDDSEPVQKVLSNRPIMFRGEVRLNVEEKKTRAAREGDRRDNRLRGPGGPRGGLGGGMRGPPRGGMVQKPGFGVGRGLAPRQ
Method: RNA Bind-n-Seq
Form: RNA
Medium: in vitro
Tested at: 200 nM
Setting: whole 134-nt RNA, ends assumed
Added: 150 mM LiCl
Reference: input library
Direction: higher = stronger binding
Library: 7-deaza-guanosine replaces G
Constant ends, left off below: GGGAGUUCUACAGUCCGACGAUC … UGGAAUUCUCGGGUGUCAAGG
| Oligonucleotide | log2 enrichment |
| --- | --- |
| UGGGAGGUGGACUUUGUUUAUUUUUUUAGCUCAUUUCCAGGGGUGGGAAUUUUUUUUUAAUAUGUGUCAUGAAUAAAGUUGUUUUUGAAA | -0.461 |
| UGGCCCCGGUGGCAUGCGGGGAGGAAGAGGUGGCCUCAUGGAUCGUGGUGGUCCCGGUGGAAUGUUCAGAGGUGGCCGUGGUGGAGACAG | 0.205 |
| UGUGCUACACAUCGUAUGUACCGAAUCGGGGAAAAAAAGGGAAAAAAAGGGAAAAAAAGGGGAAAGUAUUAUGUUACGCCGUUCGGAUCU | 0.351 |
| AGUCCUGUGCUACACAUCGUAUGUACCGAAUCGGGGCCCCGGGCCCCGGCCCCGGGGAAAGUAUUAUGUUACGCCGUUCGGAUCUGCACU | -1.79 |
| UCCUCAAGUCCUGUGCUACACAUCGUAUGUACCGAAUCGGUGGUGGGUGGGGAAAGUAUUAUGUUACGCCGUUCGGAUCUGCACUUCCAG | 0.851 |
| AGUCCUGUGCUACACAUCGUAUGUACCGAAUCGGGUUUUGGGGUUUUGGGGUUUUGGGAAAGUAUUAUGUUACGCCGUUCGGAUCUGCAC | 0.263 |
| GUCCUGUGCUACACAUCGUAUGUACCGAAUCGGGUUUUUUUGGGUUUUUUUGGGAGGGAAAGUAUUAUGUUACGCCGUUCGGAUCUGCAC | 0.398 |
| CUCAAGUCCUGUGCUACACAUCGUAUGUACCGAAUCGGGUGGGGUGGGUGGGGAAAGUAUUAUGUUACGCCGUUCGGAUCUGCACUUCCA | 0.286 |
| AAGUCCUGUGCUACACAUCGUAUGUACCGAAUCGGGAAAGGGAAAGGGAAAAAGGGAAAGUAUUAUGUUACGCCGUUCGGAUCUGCACUU | 0.262 |
| AAGUCCUGUGCUACACAUCGUAUGUACCGAAUCGGAAAAGGGGAAAAGGGGAAAAGGAAAGUAUUAUGUUACGCCGUUCGGAUCUGCACU | 0.288 |
| GCAGGAAGUAAAAACAAAUGGAAAUGCUUCGGAUAGUGGCAGGGGUGGGGGUUGCUAAGGACAGGGUGGGAUGGGAGUGGGUAAAGAGUU | -0.111 |

Study 2
Target: RING finger protein unkempt homolog, zinc fingers 1-6, GST-SBP tag (UNK, Homo sapiens, UniProt Q9C0B0, residues 30-357)
Method: RNA Bind-n-Seq
Form: RNA
Medium: in vitro
Tested at: not given
Setting: RNA with constant flanks, human-mouse chimeric sites, ends assumed
Reference: input RNA pool
Direction: higher = stronger binding
Constant ends, left off below: GGGAGUUCUACAGUCCGACGAUC … CAACAGAGGAUUGAGCAUCA
Target sequence (chain): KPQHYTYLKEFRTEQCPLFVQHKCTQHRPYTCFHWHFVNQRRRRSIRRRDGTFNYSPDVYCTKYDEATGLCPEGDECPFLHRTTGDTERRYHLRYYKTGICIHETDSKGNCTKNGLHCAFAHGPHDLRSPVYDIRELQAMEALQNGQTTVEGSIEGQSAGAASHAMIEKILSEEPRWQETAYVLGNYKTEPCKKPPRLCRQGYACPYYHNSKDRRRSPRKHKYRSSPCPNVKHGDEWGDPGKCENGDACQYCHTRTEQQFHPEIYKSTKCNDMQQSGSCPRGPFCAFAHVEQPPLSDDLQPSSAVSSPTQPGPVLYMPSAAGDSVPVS
| Oligonucleotide | bound/input enrichment [ratio] |
| --- | --- |
| UGUGCAUAUGAUGCUUGAGAUGGUUUUUGCAGAUGCAGACAUCGCUGCAAGGUAAUCACAAUAGAUAAAAGUGGUAUUUUAAACCUUUGAAAUAAAUGGAUGUAACUGUACCUUGGUACA | 0.602 |
| AGGAGGAGGUUAAAGGGUGAGAGUGGGGUGGAAGACUGUGUCAUGGCCCUAGAAACCCUGUUCAGUGUCCUGCUUUCUCUGUGCAGACUGAUGGCCCCCUACACACCCUUUCUGACUGAG | 0.0798 |
| UUGAAAAACACAGAUAUCAAAGUUGUUGACUUUGGAAGUGCAACGUAUGAUGAUGAACAUCACAGUACUUUGGUGUCUACCCGGCACUACAGAGCUCCCGAGGUCAUUUUGGCUUUAGGU | 0.226 |
| ACAGUUAUAUUGUUGAGUUUCAUUUUCAUAUAUUCUUGUAGUGUCUGCUUGCCUGUGACUUCUGGUAAAAUAAAAUAAGCCUUUGAAAAUAUUUUAGAUUUAACAUUUUCUAAAAAUAAA | 1.41 |
| AAUUUCCUGUCAUACUUUUUAGACAUUCACAUCAGACUUACAGAGCACCUGGCCACAUUCUAGGUUUGUGUUAUUUCUAAGCCUUUUGGGUAUGAUUAUGAGAACACUGCUUAACUAAUG | 0.281 |
| GGAAGUACAUUAAUGGAGAUUGAUGGUGACAAAGGCAAACAAGGCGGGCCCACCUACUACAUAGACACCAAUGCCCUCCGCGUGCCCAGGGAGAACAUGGAGGCCAUCUCACCACUCAAG | 0.27 |
| UUGCUACUGACUCCCUGGGUCAAGUUCCUGUGGGAAUCUUACAGGCAGUGUUUGGACCUUCUUCGAAACAAUUCUAGAGUAGAGCGCCUUUACCAUGAUAUUGCCCAACAAGCUUUCAAA | 0.131 |
| UGUGCAUAUGAUGCUUGGAGAUGGUUUUGCAAAAGCAGAAAUCGCUGCAAGGUAAUCACAAUAGAUACAAGCGGUAUUUUAAACCUUUGAAAUAAAUGGAUGUAACUGUACCUUGGUACA | 0.28 |
| GUAUUUGUGCGCUCCCCGUUUUUAAAUUUAAGUGUAUUUUUAUAAGAUACAUGUAUUUACAAUUGAGCUUUUGUUACAUAAUGCUGAAAUGCUACUGGAGAUUAUGAAAAAUGUUUCAAU | 0.359 |
| CUGAGGAAUACCACUGAAGAGACAUUAAAGAAUCAUUUGAGGGCUCUGUUCGUGCAAGAAUAGUCACUGAUCGGGAAACUGGUUCUUCCAAAGGGUUUGGUUUUGUAGACUUUAAUAGUG | 0.947 |
| AGAGAUAAGACAUCCAGAAAUAUGAGAGGGUCACGGAUGAAUGGGUUGCCUAGCCCCACUCACAGCGCCCACUGUAGCUUCUACCGAACCAGAACCUUGCAGGCACUGAGUAAUGAGAAG | 0.161 |

Study 3
Target: Histone acetyltransferase KAT6A, both winged helices, GST fusion (KAT6A, Homo sapiens, UniProt Q92794, residues 1-181)
Method: protein binding microarray
Form: double-stranded DNA, one strand shown
Medium: in vitro
Tested at: not given
Setting: 8-mer, flanks averaged, mean of 2 arrays, mostly near background
Reference: not given
Direction: higher = stronger binding
Residues (chain): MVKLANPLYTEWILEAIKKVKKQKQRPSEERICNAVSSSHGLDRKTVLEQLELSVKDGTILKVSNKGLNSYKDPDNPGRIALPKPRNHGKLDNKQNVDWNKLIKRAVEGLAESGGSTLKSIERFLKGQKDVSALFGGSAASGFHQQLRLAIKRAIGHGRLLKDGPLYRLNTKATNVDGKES
| Oligonucleotide | E-score |
| --- | --- |
| CGGGTGCA | 0.0479 |
| TAGCGCCA | 0.229 |
| CCGCGCGG | 0.419 |
| GGGAAGCA | -0.0129 |
| AACGCGAC | 0.168 |
| GCATTGCA | -0.138 |
| ATAAAGGA | -0.182 |
| AAACCTGC | -0.163 |
| GAAGTAAC | -0.15 |
| GGGATGAC | -0.139 |
| CAAGAATG | -0.158 |
| ACGGTGCT | 0.114 |
| AATCCGAG | 0.0775 |
| ACTCGCTC | 0.0398 |
| AAAAGCCG | 0.299 |
| ATACACCG | 0.147 |
| CTCCCGGC | 0.232 |
| CGACCACC | 0.0221 |
| CGGTGTGA | 0.0221 |
| GAATAATA | -0.0984 |
| GGATCGCA | 0.0069 |
| AGCGATGA | 0.0412 |
| CCCGCCAG | 0.148 |
| CCAACCGG | 0.0453 |
| AGTGAATG | -0.0261 |

Study 4
Target: ABI1, truncated, D143A, DHFR fusion (Arabidopsis thaliana)
Method: DHFR PCA, deep sequencing
Medium: yeast
Setting: methotrexate growth selection, single substitutions
Added: (+)-ABA 0 µM
Reference: wild-type fitted maximum
Direction: higher = stronger binding
Parent: PYL1, truncated, DHFR fusion (Arabidopsis thaliana); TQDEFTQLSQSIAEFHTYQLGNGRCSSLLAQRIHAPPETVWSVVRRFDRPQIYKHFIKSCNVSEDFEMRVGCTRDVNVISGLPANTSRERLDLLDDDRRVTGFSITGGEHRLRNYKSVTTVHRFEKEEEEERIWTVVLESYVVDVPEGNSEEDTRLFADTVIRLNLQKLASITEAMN; partner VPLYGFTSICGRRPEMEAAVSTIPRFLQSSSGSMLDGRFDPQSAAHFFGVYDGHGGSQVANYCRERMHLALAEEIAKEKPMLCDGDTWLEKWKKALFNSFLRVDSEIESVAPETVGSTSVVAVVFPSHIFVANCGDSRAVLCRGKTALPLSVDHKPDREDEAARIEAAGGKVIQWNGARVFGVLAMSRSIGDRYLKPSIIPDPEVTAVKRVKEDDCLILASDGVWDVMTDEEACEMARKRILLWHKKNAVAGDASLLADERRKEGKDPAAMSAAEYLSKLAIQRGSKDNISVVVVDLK
| Substitution | relative binding score [%] |
| --- | --- |
| V100P | -7.16 |
| T154Y | -19.6 |
| N114Q | -3.17 |
| N77C | 47.8 |
| V44T | -1.82 |
| E131L | 31.6 |
| R113D | -6.23 |
| T119Q | 2.49 |
| N149E | 27.5 |
| K116V | 4.61 |
| I172F | -11.3 |
| V145L | -7.76 |
| Q2L | 60.6 |
| T120M | -4.14 |
| V161R | 4.41 |
| R49A | 29.1 |
| E174S | -0.668 |
| E131H | 47.5 |
| C72D | 23.5 |
| R74V | 2.21 |
| N114I | 2.28 |
| E147S | 8.55 |

Study 5
Target: Sal-like protein 4, full length isoform A (SALL4, Homo sapiens, UniProt Q9UJQ4, residues 1-1053)
UniProt Q9UJQ4, sequence (whole entry, looked up): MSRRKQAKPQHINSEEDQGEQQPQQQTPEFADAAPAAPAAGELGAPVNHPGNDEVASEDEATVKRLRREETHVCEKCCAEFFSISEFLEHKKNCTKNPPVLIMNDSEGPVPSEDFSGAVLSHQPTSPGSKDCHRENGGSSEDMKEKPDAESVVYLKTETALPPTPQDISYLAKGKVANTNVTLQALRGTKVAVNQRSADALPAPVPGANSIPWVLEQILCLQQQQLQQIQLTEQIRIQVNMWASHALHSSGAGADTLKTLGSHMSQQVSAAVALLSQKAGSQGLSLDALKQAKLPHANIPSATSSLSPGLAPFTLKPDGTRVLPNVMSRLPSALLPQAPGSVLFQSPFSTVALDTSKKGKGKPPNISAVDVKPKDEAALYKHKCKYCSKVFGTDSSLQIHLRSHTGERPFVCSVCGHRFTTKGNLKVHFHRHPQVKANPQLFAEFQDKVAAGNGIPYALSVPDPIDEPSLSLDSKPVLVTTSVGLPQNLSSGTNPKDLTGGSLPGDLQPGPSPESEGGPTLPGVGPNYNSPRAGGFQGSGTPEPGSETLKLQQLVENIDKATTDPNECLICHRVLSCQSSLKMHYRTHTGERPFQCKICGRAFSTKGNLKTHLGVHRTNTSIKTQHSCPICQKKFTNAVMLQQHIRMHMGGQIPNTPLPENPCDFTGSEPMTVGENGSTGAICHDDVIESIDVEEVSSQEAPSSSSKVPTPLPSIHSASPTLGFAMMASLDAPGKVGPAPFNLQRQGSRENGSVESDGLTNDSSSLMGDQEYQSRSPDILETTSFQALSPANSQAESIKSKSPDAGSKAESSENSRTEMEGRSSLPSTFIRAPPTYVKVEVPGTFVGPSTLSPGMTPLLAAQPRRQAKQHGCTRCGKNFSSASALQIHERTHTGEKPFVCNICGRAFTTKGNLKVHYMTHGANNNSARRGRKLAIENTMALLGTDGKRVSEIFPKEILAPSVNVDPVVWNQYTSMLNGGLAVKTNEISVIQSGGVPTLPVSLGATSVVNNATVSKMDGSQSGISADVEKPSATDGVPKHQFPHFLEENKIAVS
Method: universal PBM
Form: double-stranded DNA, one strand shown
Medium: in vitro
Tested at: 600 nM
Setting: 8-mer, flanks averaged, mean of replicates
Direction: higher = stronger binding
| Oligonucleotide | E-score |
| --- | --- |
| ACAATGAG | 0.0839 |
| GCCGTAGA | -0.164 |
| AGCCAGAT | -0.0113 |
| GTAATTTA | 0.333 |
| GCCGAGAA | -0.177 |
| CACTGCGA | -0.0326 |
| CGGACATC | -0.211 |
| GAGACCCA | -0.224 |
| AATTGGGT | 0.19 |
| CAGCACAC | -0.102 |
| CGGATTGC | -0.0962 |
| ATACGCTC | 0.141 |
| GGACGGGA | -0.229 |
| ACAGAGTC | -0.108 |
| GGCGTAAC | -0.121 |
| CCGCCACA | -0.275 |
| ATGAGTTG | 0.027 |
| ACCTTCGG | -0.0657 |
| GCCCATCC | -0.175 |
| GTTATTTA | 0.339 |
| CCATATTC | 0.255 |
| AGGGAATG | 0.0191 |
| CTCGTCCA | -0.0688 |
| GCGAGAGA | -0.231 |
| AGGTATTG | 0.162 |

Excerpt of the above (study 4):
| Substitution | relative binding score [%] |
| --- | --- |
| R113D | -6.23 |
| T154Y | -19.6 |
| V100P | -7.16 |
| C72D | 23.5 |
| E131H | 47.5 |
| K116V | 4.61 |
| V44T | -1.82 |
| E131L | 31.6 |
| N149E | 27.5 |
